Assay results from different studies.
Protocols differ between the studies behind these lines. Values joined by “and” are separate records of one study, mostly repeats; a detail may differ. Numbers after ± are the reported error.
4'-phosphopantetheinyl transferase PptT: 4'-phosphopantetheinyl transferase PptT (Mycobacterium tuberculosis, UniProt O33336)
UniProt O33336, sequence (whole entry, looked up): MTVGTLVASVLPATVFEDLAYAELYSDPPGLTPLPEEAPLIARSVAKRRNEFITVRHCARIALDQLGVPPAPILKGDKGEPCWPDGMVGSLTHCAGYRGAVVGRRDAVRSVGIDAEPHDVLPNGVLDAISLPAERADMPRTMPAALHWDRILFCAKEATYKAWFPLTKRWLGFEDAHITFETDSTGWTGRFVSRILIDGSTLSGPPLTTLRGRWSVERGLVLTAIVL
cyp121: Mycocyclosin synthase (cyp121, Mycobacterium tuberculosis, UniProt P9WPP7)
UniProt P9WPP7, sequence (whole entry, looked up): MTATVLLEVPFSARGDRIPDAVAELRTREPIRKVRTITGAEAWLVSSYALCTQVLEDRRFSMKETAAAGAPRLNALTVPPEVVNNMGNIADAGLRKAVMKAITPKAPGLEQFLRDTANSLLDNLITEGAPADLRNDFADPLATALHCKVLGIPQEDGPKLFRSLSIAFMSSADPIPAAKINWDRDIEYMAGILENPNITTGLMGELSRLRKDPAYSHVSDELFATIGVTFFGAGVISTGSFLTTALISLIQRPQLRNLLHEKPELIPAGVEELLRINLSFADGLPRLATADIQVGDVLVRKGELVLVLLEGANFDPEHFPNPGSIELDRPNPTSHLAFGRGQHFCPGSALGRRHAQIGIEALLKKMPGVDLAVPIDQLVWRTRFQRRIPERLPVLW
UniProt P08311, sequence (whole entry, looked up): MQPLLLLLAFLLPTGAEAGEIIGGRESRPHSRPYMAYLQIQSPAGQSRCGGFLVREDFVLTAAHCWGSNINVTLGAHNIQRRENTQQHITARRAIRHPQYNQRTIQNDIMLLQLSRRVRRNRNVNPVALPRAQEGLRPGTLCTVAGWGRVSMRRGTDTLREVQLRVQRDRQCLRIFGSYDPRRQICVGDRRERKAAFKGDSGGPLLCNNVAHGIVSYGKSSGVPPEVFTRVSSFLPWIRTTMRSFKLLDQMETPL
UniProt P47026, sequence (whole entry, looked up): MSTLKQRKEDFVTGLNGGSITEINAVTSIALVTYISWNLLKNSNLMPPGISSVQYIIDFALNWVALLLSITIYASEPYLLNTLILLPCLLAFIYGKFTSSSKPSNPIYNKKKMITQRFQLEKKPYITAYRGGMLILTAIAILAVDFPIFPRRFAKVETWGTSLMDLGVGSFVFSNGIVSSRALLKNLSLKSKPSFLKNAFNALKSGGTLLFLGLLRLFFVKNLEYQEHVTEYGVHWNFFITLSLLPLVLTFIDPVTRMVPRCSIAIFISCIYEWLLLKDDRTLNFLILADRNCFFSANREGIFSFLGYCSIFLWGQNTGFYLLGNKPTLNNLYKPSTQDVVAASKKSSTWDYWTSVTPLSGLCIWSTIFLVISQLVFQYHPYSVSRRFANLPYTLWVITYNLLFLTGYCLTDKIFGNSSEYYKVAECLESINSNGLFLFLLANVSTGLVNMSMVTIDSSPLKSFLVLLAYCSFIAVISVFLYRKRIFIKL
UniProt P16389, sequence (whole entry, looked up): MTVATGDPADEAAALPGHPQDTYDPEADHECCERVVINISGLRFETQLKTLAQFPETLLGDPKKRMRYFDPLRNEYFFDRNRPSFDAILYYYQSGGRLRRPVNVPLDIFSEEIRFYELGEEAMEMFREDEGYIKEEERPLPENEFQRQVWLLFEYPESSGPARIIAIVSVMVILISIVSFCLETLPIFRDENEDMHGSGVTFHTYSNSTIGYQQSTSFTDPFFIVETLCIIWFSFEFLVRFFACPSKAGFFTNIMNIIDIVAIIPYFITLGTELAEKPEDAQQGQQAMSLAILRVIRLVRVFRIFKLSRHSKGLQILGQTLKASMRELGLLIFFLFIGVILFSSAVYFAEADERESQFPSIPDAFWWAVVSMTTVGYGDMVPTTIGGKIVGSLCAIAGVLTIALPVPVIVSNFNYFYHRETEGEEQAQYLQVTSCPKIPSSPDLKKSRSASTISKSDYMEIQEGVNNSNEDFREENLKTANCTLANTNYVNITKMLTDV
UniProt P9WIA1, sequence (whole entry, looked up): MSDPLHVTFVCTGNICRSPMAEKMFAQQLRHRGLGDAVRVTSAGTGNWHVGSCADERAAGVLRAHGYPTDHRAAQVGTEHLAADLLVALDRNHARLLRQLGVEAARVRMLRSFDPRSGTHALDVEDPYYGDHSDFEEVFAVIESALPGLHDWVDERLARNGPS
UniProt O95835, sequence (whole entry, looked up): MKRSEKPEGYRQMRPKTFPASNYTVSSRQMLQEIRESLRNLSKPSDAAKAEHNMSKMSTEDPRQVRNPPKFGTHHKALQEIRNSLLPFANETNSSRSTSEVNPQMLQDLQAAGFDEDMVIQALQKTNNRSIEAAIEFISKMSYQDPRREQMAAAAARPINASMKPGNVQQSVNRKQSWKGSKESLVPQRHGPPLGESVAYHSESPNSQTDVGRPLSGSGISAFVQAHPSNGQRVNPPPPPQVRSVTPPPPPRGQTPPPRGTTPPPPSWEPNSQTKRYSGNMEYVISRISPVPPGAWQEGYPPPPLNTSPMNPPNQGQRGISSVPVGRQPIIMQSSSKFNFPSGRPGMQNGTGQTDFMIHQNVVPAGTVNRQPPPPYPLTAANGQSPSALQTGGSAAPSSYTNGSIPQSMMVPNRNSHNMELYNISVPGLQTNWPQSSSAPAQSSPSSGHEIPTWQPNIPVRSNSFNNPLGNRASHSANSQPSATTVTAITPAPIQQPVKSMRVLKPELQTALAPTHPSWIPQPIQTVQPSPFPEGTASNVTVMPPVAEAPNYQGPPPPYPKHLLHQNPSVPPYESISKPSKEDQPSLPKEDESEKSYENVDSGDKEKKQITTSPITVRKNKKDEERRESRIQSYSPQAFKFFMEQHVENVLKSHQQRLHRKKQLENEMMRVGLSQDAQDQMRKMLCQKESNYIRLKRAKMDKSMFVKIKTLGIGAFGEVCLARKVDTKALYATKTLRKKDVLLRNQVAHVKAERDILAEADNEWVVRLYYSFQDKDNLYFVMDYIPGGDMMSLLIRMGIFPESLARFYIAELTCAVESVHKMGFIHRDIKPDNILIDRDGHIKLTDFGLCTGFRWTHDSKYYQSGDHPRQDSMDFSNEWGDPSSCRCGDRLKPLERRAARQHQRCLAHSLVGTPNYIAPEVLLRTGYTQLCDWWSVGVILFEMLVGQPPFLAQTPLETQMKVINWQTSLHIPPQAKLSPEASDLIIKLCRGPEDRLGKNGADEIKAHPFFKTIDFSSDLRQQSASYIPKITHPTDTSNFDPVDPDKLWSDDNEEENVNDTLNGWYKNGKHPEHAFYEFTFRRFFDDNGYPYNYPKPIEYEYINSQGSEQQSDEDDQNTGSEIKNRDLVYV

C#CCN(Cc1ccc2nc(C)[nH]c(=O)c2c1)c1ccc(C(=O)N[C@H](CCC(=O)OC)C(=O)OC)cc1 has an IC50 of 7.83 µM (4'-phosphopantetheinyl transferase PptT; enzyme activity, inhibitor, fluorescence polarization; enzyme 100 nM).
CC(C)CC(C(=O)N1CC2(CC1C#N)C(=O)Nc1ccccc12)N(C)C(=O)c1cc2c(F)cc(F)c(F)c2[nH]1 (stereo not shown) has an IC50 of 72.1 µM and > 100 µM (Cathepsin G (CTSG, Homo sapiens, UniProt P08311); enzyme activity, inhibitor).
CC(C)(C)C(=O)OCOP(=O)(OCOC(=O)C(C)(C)C)C1CCCN(O)C1=O (stereo not shown) gave a GI50 of 0.334 µM (SN12C).
The IC50 of CC[C@H](C)[C@@H]1NC(=O)[C@@H](NC(=O)CNC(=O)[C@@H](N)CCCCN)CSSC[C@@H]2NC(=O)[C@@H]3CSSC[C@H](NC(=O)[C@H](CCC(N)=O)NC(=O)[C@H](CC(C)C)NC(=O)[C@@H]4CCCN4C(=O)[C@H](CCCNC(=N)N)NC2=O)C(=O)N[C@@H](CCCCN)C(=O)NCC(=O)N2CCC[C@H]2C(=O)N[C@@H](CO)C(=O)N2CCC[C@H]2C(=O)N[C@@H](CCCCN)C(=O)N[C@@H](CCC(N)=O)C(=O)N[C@@H](CCCCN)C(=O)N[C@@H](CCCCN)C(=O)N[C@H](C(=O)N[C@H](C(=O)N[C@@H](CCCCN)C(=O)N[C@H](C(=O)O)C(C)C)[C@@H](C)O)CSSC[C@H](NC(=O)[C@H](Cc2c[nH]c4ccccc24)NC(=O)[C@H](CCCCN)NC(=O)CNC(=O)[C@H](CCC(=O)O)NC(=O)[C@H](CCCCN)NC1=O)C(=O)N1CCC[C@H]1C(=O)N[C@@H](CCCCN)C(=O)N[C@@H]([C@@H](C)O)C(=O)N[C@@H](C)C(=O)N1CCC[C@H]1C(=O)N3 is reported as 0.171 µM (Potassium voltage-gated channel subfamily A member 2 (KCNA2, Homo sapiens, UniProt P16389); ion current, inhibitor, patch clamp; pH 7.4).
The IC50 of Nc1ccccc1C(=O)OCC#CCOC(=O)c1ccccc1N is reported as ~61.7 µM (GPI-anchored wall transfer protein 1 (GWT1, Saccharomyces cerevisiae, UniProt P47026); GlcN-PI acylation, inhibitor, TLC; Saccharomyces cerevisiae membranes).
For C#CCN(Cc1ccc2nc(C)[nH]c(=O)c2c1)c1cnc(C(=O)NC(CCC(=O)O)C(=O)O)s1 (stereo not shown), the IC50 was 0.043 µM (4'-phosphopantetheinyl transferase PptT; enzyme activity, inhibitor, FP).
The IC50 of N[C@@H](CCC(=O)N[C@@H](CS[Se]Cc1ccccc1)C(=O)NCC(=O)O)C(=O)O is reported as 9.08 µM (Low molecular weight protein-tyrosine phosphatase A (Mycobacterium tuberculosis, UniProt P9WIA1); enzyme activity).
CN(C)[C@H]1C[C@@]23CC[C@@]4(O2)C(=CC[C@]2(C)[C@@H](c5ccc6ccncc6c5)CC[C@H]24)C=C3[C@@H](O)[C@@H]1O has an inhibition of 1% (Serine/threonine-protein kinase LATS1 (LATS1, Homo sapiens, UniProt O95835); ATP probe labelling, inhibitor, KiNativ profiling; 0.1 µM).
Fc1ccc(-c2ccc(/C=C/Cn3ccnc3)cc2)cc1 has an IC50 of 24 µM (cyp121; mycocyclosin formation, inhibitor, LC-MS/MS; added: cYY 20 µM).
COc1ccccc1-c1n[nH]c2nc(NC3CCN(C(=O)Cc4ccc(F)cc4F)CC3)ncc12 has a relative abundance of 0.86 (bead binding, competition bead pull-down, measured: LINJ.28.2080; Leishmania donovani axenic amastigote extract; 10 µM; reference: vehicle).
For O=C1NC2(CC2)COc2ncc(F)cc2[C@H]2COCCN2c2ccn3ncc1c3n2, “organ-to-brain weight ratio” read 52.8 ± 4.58% (Sprague-Dawley rat, male, spleen; oral, 5 mg/kg/day, 4 weeks dosing, end of recovery).
With C#CCN(Cc1ccc2nc(C)[nH]c(=O)c2c1)c1ccc(C(=O)NC(CCC(=O)O)C(=O)O)cc1 (stereo not shown) the IC50 was 0.065 µM (4'-phosphopantetheinyl transferase PptT; enzyme activity, inhibitor, FP).
c1cn(Cc2ccc(-c3ccc4c(c3)OCO4)cc2)cn1 has an IC50 of 36 µM (cyp121; mycocyclosin formation, inhibitor, LC-MS/MS; added: cYY 20 µM).
